Measurements pooled from the literature.
Parts stem from different laboratories: compare values within a part only. Changes are numbered by the printed parent chain.
Chain of UniProt Q00535 (whole entry, looked up): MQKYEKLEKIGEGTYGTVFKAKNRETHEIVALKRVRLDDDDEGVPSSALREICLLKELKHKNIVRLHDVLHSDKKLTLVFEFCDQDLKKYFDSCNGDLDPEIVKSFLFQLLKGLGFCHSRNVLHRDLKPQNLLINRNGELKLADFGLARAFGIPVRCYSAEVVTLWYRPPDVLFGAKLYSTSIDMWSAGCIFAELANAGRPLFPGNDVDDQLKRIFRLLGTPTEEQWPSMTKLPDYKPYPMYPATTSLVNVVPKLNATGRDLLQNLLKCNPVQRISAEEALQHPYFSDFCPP
Chain of UniProt P36894 (whole entry, looked up): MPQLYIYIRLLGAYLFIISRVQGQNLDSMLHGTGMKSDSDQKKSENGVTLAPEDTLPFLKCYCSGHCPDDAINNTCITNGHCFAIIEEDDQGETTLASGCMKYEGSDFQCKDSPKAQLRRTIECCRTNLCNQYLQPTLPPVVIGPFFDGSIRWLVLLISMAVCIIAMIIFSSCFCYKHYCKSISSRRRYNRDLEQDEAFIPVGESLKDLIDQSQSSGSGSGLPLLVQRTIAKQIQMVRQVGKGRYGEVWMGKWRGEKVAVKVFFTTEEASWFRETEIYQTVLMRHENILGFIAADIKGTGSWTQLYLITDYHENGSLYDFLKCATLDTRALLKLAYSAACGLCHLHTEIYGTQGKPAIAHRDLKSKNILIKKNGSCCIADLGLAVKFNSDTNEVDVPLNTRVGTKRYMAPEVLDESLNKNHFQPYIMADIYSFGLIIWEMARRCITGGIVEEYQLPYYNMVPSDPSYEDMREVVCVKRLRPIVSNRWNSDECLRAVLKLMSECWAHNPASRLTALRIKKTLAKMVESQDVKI
Chain of UniProt Q6XUX3 (whole entry, looked up): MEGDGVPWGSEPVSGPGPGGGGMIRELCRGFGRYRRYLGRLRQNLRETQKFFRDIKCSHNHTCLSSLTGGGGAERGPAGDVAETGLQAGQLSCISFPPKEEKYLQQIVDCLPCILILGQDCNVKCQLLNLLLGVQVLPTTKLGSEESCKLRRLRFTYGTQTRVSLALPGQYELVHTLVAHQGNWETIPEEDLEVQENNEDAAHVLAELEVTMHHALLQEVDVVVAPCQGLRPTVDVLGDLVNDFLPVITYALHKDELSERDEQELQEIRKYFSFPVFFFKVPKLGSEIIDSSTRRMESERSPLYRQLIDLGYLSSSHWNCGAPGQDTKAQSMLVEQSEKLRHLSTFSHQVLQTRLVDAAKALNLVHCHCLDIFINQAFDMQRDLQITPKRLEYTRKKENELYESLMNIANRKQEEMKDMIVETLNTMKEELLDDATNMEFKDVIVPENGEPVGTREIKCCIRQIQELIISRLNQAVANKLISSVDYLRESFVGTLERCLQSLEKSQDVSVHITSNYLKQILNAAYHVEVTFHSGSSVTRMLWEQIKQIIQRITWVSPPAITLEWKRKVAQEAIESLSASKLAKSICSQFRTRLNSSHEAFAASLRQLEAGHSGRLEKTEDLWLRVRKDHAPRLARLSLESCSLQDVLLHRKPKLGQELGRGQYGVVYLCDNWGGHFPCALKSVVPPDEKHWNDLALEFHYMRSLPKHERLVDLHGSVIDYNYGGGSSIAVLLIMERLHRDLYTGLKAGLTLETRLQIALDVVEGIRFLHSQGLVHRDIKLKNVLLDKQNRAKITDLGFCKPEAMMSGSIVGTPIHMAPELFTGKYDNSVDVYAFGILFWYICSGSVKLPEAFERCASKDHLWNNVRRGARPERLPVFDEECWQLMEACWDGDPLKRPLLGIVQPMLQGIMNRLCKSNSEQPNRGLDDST
Chain of UniProt O43353 (whole entry, looked up): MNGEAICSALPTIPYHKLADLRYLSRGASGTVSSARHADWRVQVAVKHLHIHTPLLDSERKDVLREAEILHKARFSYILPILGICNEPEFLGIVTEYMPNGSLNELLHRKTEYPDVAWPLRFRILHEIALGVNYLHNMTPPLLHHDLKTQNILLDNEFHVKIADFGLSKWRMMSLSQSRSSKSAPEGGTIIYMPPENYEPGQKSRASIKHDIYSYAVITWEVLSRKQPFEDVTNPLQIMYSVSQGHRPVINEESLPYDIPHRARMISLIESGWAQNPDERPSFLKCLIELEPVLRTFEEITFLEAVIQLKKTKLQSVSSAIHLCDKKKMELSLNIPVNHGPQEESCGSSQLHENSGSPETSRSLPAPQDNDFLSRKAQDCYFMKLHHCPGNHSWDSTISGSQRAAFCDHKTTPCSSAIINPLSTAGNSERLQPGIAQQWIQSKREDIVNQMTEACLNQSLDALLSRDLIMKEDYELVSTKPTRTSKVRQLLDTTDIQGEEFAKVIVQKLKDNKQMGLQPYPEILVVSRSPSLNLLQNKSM
Chain of UniProt Q9UM73 (whole entry, unmodified, looked up): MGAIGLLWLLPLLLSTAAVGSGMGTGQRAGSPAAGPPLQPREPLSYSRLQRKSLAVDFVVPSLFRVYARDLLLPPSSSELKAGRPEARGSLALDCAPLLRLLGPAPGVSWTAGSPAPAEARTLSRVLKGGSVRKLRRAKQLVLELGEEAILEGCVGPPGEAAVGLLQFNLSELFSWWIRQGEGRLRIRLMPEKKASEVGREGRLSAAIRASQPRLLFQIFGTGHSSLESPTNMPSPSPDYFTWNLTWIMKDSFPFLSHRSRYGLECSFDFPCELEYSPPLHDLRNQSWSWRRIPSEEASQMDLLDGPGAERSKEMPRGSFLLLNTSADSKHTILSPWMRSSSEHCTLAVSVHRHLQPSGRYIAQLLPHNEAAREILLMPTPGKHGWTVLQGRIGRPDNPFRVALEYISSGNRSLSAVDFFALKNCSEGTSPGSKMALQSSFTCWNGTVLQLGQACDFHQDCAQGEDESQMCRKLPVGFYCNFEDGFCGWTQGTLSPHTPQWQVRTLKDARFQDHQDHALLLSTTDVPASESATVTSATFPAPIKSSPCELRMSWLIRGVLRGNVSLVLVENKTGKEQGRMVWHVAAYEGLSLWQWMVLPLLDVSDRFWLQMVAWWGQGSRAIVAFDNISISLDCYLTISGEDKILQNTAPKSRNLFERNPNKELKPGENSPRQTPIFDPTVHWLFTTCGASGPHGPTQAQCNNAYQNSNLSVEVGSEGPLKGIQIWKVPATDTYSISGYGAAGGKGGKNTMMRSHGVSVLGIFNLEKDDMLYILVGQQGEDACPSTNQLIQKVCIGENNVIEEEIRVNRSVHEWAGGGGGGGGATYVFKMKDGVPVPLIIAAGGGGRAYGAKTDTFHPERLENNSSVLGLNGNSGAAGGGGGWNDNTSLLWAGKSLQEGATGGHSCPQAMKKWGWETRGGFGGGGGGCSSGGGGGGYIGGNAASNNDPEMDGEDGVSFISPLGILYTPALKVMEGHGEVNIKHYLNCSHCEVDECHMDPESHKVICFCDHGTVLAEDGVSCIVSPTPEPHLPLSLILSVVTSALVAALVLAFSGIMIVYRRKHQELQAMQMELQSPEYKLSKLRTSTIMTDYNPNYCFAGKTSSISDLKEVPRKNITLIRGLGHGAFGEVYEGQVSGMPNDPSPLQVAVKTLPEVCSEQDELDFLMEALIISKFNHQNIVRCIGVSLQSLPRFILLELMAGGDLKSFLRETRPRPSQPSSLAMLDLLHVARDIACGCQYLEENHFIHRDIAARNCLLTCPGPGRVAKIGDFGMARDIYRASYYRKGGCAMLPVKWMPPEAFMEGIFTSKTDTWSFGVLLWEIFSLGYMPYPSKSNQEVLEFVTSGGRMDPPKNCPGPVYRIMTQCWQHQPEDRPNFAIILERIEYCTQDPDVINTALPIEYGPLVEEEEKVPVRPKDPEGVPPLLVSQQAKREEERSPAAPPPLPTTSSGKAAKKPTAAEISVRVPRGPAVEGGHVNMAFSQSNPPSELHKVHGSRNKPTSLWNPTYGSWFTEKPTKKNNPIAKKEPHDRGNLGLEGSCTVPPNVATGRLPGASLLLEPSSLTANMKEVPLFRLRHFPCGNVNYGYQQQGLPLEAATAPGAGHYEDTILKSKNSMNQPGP

Study 1
Target: RNA binding protein fox-1 homolog 2, RRM domain, GST-SBP tag (RBFOX2, Homo sapiens, UniProt O43251-10, residues 100-194)
Method: RNA Bind-n-Seq
Form: RNA
Medium: in vitro
Tested at: 365 nM
Notes: natural RNA segment, single round, ends assumed
Reference: no-protein control
Reading: higher = stronger binding
Construct (chain): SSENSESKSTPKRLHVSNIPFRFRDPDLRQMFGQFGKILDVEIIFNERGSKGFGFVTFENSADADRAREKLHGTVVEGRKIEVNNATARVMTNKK
| Sequence | RBNS enrichment (R) |
| --- | --- |
| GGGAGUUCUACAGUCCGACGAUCCAGAGGCCCCAUUAGCUUUAAAAUGUAGCCCCAGGUUGGAGCUGGGAACACUGUACUGGCCACUUACCCUCUGGGGCCUCAGCUUUCCCUCCGGAAGGCUGGGAGGAGGUUGGAAUUCUCGGGUGCCAA | 0.34 |
| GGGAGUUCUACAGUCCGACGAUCGUGCCAUUGAGUUUCAAAUGACCAGCAAAUAUAUUUAGAACCCUUCCUGUUUUAUGUCUGUACCUCGUCCACCCCUCAGGUAAUACCUGCCUCUCACAGGUACAGCUGUUUGGAAUUCUCGGGUGCCAA | 0.596 |
| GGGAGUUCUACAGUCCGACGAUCUCUAUUUCUCCCAACCAAAUCCUCUUAAAGACCCUUUGCUAUGUAGUCUCAUGGUCUAGCAUGCAUCUUGUAGAAACAAGGCAUGCUGGCAGAUUGCAGGGUUGAGAUGUUGGAAUUCUCGGGUGCCAA | 0.347 |
| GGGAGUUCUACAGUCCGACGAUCUUACCACUGUCAGAUUGGAAGUGACCGAAGCAGGGGAUGAAGAGAAAGCUCACAUUCUAAGUAGAGAAGCAGGAAAAAUUGUUCAAAAGACAAACACCCUGUUGAACUGAUGGAAUUCUCGGGUGCCAA | 0.306 |
| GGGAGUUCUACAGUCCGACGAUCAGAAAAAAAUGUCUUCUGCAAAUUUUCUAGUAUAACAGAAAUUUUUGUAGAUGAAAAAAAUCAUUAUGUUUAGAGGUCUAAUGCUAUGUUUUCAUAUUACAGAGUGAAUUUGGAAUUCUCGGGUGCCAA | 0.519 |
| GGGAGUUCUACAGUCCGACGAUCGGCAAGGAGAGGCGUGGACACCGGCCACAGGUGUGCCCGAGCCCCAUCCUACCUGAGUCUCUGUCUCCCUCUCUGGAUAUGUGCGUCCCCACUCCCACCAGCCUACCACCUGGAAUUCUCGGGUGCCAA | 0.405 |
| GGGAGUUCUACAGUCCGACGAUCCUGAUUAGUGGUAGUUAUUUGCUGGGAACUGACAAAGUUCAUCUUGGCAAUGAUUAAACCCAGCUUAGCAACGUGAGAAUUAUUUUUUUUUUUCUAAGAAGAAAAUUCAGUGGAAUUCUCGGGUGCCAA | 0.53 |
| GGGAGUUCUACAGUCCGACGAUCUGUGCCUGCCACCUGCUGCCCCUGCAGAGUCAUGUGUGUUUGUGGUGGGCAUUUUAAAUAAUUAUUUAAAAGACAGGAAGUAAGCGGUACCGAGCAAUGAAACUGAAGGUUGGAAUUCUCGGGUGCCAA | 0.379 |

Study 2
Target: NFE2, bZIP domain (human)
Method: DHFR protein complementation
Medium: yeast
Notes: single substitutions, most at no-binding floor
Reference: wild-type JUN-FOS pair
Reading: higher = stronger binding
Starting sequence: JUN, bZIP domain (human); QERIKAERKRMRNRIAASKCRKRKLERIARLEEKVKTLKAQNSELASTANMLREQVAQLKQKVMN; partner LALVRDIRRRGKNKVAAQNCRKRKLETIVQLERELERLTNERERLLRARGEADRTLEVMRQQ
| Substitution | binding fitness |
| --- | --- |
| L31D | -1.38 natural log |
| L31C | -1.34 natural log |
| Q41C | -1.5 natural log |
| A49L | -1.22 natural log |
| A57L | -1.5 natural log |
| T48R | -1.47 natural log |
| R53C | -1.54 natural log |
| S47R | -1.39 natural log |

Study 3
Compound: Cc1nc(C2CCN(C(=O)c3ccc(OC(F)(F)F)cc3N)CC2)c2ncc(N3CCN(C)CC3)cc2n1
Method: competition with immobilised ligand
Tested at: 1 µM
| target | read-out | remaining binding [%] |
| --- | --- | --- |
| CSNK1G1 (Homo sapiens, UniProt Q9HCP0) | cell-free assay | 100 |
| CDK5 (Homo sapiens, UniProt Q00535) | cell-free assay | 88 |
| ALK (Homo sapiens, UniProt Q9UM73, C1156Y) | cell-free assay | 100 |
| BMPR1A (Homo sapiens, UniProt P36894) | binding | 80 |
| ACVR2A (Homo sapiens, UniProt P27037) | cell-free assay | 100 |
| RIPK2 (Homo sapiens, UniProt O43353) | cell-free assay | 94 |
| Tyrosine-protein kinase ABL1, phosphorylated (ABL1, Homo sapiens, UniProt P00519, Y253F) | cell-free assay | 98 |
| FLT3 (Homo sapiens, UniProt P36888, D835V) | cell-free assay | 79 |
| PNCK (Homo sapiens, UniProt Q6P2M8) | cell-free assay | 100 |
| FLT3 (Homo sapiens, UniProt P36888, N841I) | cell-free assay | 100 |
| DSTYK (Homo sapiens, UniProt Q6XUX3) | cell-free assay | 95 |
| MAPK4 (Homo sapiens, UniProt P31152) | cell-free assay | 91 |
| Tyrosine-protein kinase ABL1, non-phosphorylated (ABL1, Homo sapiens, UniProt P00519, T315I) | cell-free assay | 89 |

Study 4
Target: Serine/threonine-protein kinase TAO3 (TAOK3, Homo sapiens, UniProt Q9H2K8)
Chain of UniProt Q9H2K8 (whole entry, looked up): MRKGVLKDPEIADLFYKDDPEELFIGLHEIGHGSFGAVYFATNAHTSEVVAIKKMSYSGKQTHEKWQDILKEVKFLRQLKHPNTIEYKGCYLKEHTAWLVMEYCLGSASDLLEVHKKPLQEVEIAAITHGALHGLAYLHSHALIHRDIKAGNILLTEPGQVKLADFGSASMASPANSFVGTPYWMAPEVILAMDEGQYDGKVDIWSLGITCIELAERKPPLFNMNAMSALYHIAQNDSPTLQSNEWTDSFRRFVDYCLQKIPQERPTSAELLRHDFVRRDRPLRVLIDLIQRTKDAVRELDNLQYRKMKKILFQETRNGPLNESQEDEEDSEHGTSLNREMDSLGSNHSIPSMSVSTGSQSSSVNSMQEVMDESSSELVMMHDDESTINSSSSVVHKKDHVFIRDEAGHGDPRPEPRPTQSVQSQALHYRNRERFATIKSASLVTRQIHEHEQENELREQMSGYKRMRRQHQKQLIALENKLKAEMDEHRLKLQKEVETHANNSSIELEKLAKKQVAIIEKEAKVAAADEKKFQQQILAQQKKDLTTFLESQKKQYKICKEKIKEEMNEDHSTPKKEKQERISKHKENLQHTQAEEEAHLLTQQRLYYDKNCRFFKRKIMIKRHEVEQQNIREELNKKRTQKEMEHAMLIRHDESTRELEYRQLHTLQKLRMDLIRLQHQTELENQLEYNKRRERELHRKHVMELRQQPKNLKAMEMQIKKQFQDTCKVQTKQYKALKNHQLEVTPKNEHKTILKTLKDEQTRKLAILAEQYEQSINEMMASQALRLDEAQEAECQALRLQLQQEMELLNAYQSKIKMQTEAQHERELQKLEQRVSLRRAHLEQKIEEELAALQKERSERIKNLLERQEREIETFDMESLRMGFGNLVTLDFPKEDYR
Read-out: enzyme activity
Mode: inhibitor
Tested at: 0.5 µM
Reference: control
| Compound | remaining activity [%] |
| --- | --- |
| Nc1nc(Nc2ccc(S(N)(=O)=O)cc2)nn1C(=S)Nc1c(F)cccc1F | 10 |
| CC(C)N(CCC(=O)c1ccc2ccccc2c1)Cc1ccccc1 | 87.8 |
| O=C1c2ccccc2-c2nc3nnnn3nc21 | 90.8 |
| CC(C)n1cnc2c(Nc3cccc(Cl)c3)nc(NCCO)nc21 | 91.8 |
| NC(=O)c1ccc(-c2nc(-c3ccc4c(c3)OCCO4)c(-c3ccccn3)[nH]2)cc1 | 103 |
| O=C1NC(=O)/C(=C/c2ccc3c(c2)OC(F)(F)O3)S1 | 84.7 |

A few entries again (study 2):
| Substitution | binding fitness |
| --- | --- |
| L31C | -1.34 natural log |
| Q41C | -1.5 natural log |
